Assay results pooled from the literature.
Parts stem from different laboratories: compare values within a part only. Substitutions count along the parent as printed.

Series 1 — method: universal PBM; molecule type: double-stranded DNA, one strand shown; matrix: in vitro; concentration: not given; direction: higher = stronger binding
Target: Sal-like protein 4, full length isoform B (SALL4, Homo sapiens, UniProt Q9UJQ4-2, residues 1-616)
Setting: 8-mer, flanks averaged, mean of replicates
Strand	E-score
GGCAGGGA	-0.139
AAATGGCT	0.107
ACGGGCCA	-0.198
CGCATCTA	0.00091
TATCAACA	0.212
AATTCTTC	0.19
GTATCCTA	0.154
CTACAACC	0.109
ATGGGCCG	-0.237
GAGTGGGC	-0.207
ATGCAGAA	0.181
GACTCAGA	-0.215
CGAACAAA	0.141
CCGTTCAG	-0.214
AACGACGG	0.0048
TGTTAAAA	0.265
ACTACTAC	0.114
AACCGTCC	-0.0581
GATTCCCC	-0.228
CCAAAGGG	-0.207
AATTCACA	0.201
CTGTGCCC	-0.221

Series 2 — method: DHFR PCA, deep sequencing; matrix: yeast; with: (+)-ABA 710 µM; relative to: wild-type fitted maximum; direction: higher = stronger binding
Target: ABI1, truncated, D143A, DHFR fusion (Arabidopsis thaliana)
Setting: methotrexate growth selection, single substitutions
Parent: PYL1, truncated, DHFR fusion (Arabidopsis thaliana); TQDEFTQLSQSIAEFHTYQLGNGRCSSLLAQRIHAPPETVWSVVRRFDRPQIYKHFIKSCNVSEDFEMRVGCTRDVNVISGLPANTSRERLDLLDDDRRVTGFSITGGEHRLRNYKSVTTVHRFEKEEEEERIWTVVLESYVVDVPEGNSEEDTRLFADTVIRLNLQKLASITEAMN; partner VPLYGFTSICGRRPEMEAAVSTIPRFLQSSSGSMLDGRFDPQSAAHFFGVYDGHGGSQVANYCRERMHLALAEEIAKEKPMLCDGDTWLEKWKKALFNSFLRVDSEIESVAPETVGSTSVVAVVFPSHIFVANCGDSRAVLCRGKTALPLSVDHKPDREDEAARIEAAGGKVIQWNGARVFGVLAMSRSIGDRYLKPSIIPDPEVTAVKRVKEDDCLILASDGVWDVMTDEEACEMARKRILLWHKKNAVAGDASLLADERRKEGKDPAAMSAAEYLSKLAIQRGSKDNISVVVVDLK
Substitution	relative binding score
V100G	52.8%
A170P	0.545%
S117R	1.54%
I172Q	89.3%
N77S	105%
R24E	98.8%
M68K	90.6%
H55T	104%
D92E	98.7%
E4D	102%
S59M	95.9%
E151P	98.9%
G102C	75.5%
M68W	91.1%
Q10K	109%

Series 3 — method: RNA Bind-n-Seq; molecule type: RNA; matrix: in vitro; concentration: 365 nM; relative to: no-protein control; direction: higher = stronger binding
Target: RNA binding protein fox-1 homolog 2, RRM domain, GST-SBP tag (RBFOX2, Homo sapiens, UniProt O43251-10, residues 100-194)
Setting: natural RNA segment, single round, ends assumed
Target sequence (chain): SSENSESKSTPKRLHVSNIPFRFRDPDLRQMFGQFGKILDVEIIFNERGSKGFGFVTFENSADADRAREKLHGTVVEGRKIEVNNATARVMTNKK
Strand	RBNS enrichment (R)
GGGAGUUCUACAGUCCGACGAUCAAGGGAUUGGCACCAAGACCAGGCAGCCCUUGAUUUCCUCGCUCUCUGGAGCUAGUCAGUGUCCUAGACCACCAGGACCUCUACUCAUUCAUGAGUUAGUUAUGCAGCAAUGGAAUUCUCGGGUGCCAA	0.38
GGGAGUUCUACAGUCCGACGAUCAUGGCAGAAACUUCAUGAACCAGCCCUUUCUCAGAGCCAGUGAUGUGAGUGUAUCAGAAUGCCAGGGAGGGCACCAGCCCUGAUCCACAGACCUCGGAAAGAUGCCCCUGUGGAAUUCUCGGGUGCCAA	0.274
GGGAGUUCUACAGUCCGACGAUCAAUUUAAUGUUUUGUAGUGAUGAAUAUGAAAAUGCCUGUCAUCUUUAGAUCAUUGAAAGGUUAACUAACAUGAGAAUUUCAGAGCAAAUUCCAAUACUCUUUUAAAAAGCUGGAAUUCUCGGGUGCCAA	0.941
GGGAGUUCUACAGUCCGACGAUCGUGAGGAUAAGGGGUGGGGGAGAAAAAAUCACUGUUUGUUUUUAAAAAGCAAAUCUUUCUGUAAACAGAAUAAAAGUUCCUCUCCCUUCCCUUCCCUCACCCCUGACAUGUGGAAUUCUCGGGUGCCAA	0.464
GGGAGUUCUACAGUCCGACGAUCGCCAUGGAGGGCUGAAGCCCAGGCUCUCCUUACUCUCUGGAGUGUGAAGGUAGGGGUGAGCUCGUCUCACCCCUUUAUUAAAUGCUCCUGGAACUUGGAAGAGCAGCAGAUGGAAUUCUCGGGUGCCAA	0.319
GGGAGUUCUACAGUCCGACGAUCCCAUUUGCUAGUUCUCAUGUGAUAUGCAACGGUCCAAGAUGGUUAUCUGAAUCAGGAUAGAACACCCAUUAGUCAUUUUCCCCCCACAAAGCAGCAUUCUGCCUGAAGCAUGGAAUUCUCGGGUGCCAA	18.9
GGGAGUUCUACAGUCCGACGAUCCCCUCUUGGGUUCCUAAGUUCUAUGUUCCUUAGAGGUUCUAGCAUUAAACAGAUAAAGCCCUUCAUGGUCCUGGCUGAGGAAGAGUCUUGCUAGGGGGAUUCAGGGAAGAUGGAAUUCUCGGGUGCCAA	0.542
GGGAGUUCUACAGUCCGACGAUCCAGCUUUCAGAGCCAGUGAAGGAGCCACGUGAAUGGCCCUAGAACUGUGCCUAGUUCCUGUGGCCAGGAGGUUGGUGACUGAAACAUUCACACAGGGCUCUUUGAUGGACUGGAAUUCUCGGGUGCCAA	0.509
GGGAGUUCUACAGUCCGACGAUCUUUUGUAAUAAAUGUGUACAUUUUUUUUAAAUUUUGGACAUCACAUGAAUAAAGGUAUGUAUGUACGAAUGUGUAUAUAUUAUAUAUAUGACAUCUAUUUUGGAAAAUGUUGGAAUUCUCGGGUGCCAA	0.665
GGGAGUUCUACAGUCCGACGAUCUUUAUAUGUUUUUAGCUUUAGUAUUUAACUUUUUGUAACAAAUAAACCUUUUUUAAAACAAGUUUAACGAAGUGUCCUGUAAUUAUUUUACCUUGGAUGUUGAAAUACUGUGGAAUUCUCGGGUGCCAA	0.641
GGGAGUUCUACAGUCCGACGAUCCAACAUGUAAAAAAAGGGGGCAUGGAUUUACAUUGCAAAAGGUGUCCACAGUGUAUUAGUGACAUUCUUUCAUUGACAGCUGACAUAAUUCAUUGAGUGAAAUAUUUUAAUGGAAUUCUCGGGUGCCAA	0.595
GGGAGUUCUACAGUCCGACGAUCUACAUAUAUAUAUAUGUAUAAAUAUAAGAAUAUCCCAGCGGCACUUUAUACUGUUCACUGUACAAAAGCUUACAGUUUUCCACAAGGACUUUAAUAACUAGCUGGGGAAAUGGAAUUCUCGGGUGCCAA	0.454

Series 4 — target: CCNE2, cyclin fold, Cln2 fusion (human); method: yeast growth competition, sequencing; matrix: yeast; setting: strong parent motif; relative to: not given; direction: higher = stronger binding
Parent: CDC25A docking peptide (human); PPHRRRLLFACSP; partner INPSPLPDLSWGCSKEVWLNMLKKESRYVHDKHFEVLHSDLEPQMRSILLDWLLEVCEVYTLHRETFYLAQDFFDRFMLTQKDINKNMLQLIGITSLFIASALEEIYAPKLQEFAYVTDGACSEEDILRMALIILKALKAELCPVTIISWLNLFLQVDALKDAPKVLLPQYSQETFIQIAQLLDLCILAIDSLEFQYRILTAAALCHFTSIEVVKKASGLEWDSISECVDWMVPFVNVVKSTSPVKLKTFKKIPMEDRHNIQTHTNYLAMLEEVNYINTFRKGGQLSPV
Substitution	normalised enrichment score
HPHRRRLLFACSP [P1H]	1.7
PPHRNRLLFACSP [R5N]	-0.0617
PKHRRRLLFACSP [P2K]	1.92
PPHRRRLLFVCSP [A10V]	2.15
PPHRRRLYFACSP [L8Y]	2.45
PPHRRRLQFACSP [L8Q]	1.67
PPHRRRELFACSP [L7E]	0.787
FPHRRRLLFACSP [P1F]	0.985
PPHRRRLLFYCSP [A10Y]	1.12
PPHRKRLLFACSP [R5K]	1.23
PPHLRRLLFACSP [R4L]	1.48
PPHRDRLLFACSP [R5D]	0.163
PPHRRRLLFACKP [S12K]	0.919
PPHRWRLLFACSP [R5W]	1.34
RPHRRRLLFACSP [P1R]	1.47
PPHDRRLLFACSP [R4D]	0.721
DPHRRRLLFACSP [P1D]	1.03
PPHRRRLGFACSP [L8G]	1.02
PPCRRRLLFACSP [H3C]	3.9
PPHRRRYLFACSP [L7Y]	0.526
PPHRRRLLFACVP [S12V]	1.67

Series 5 — method: protein-binding microarray; molecule type: double-stranded DNA, one strand shown; matrix: in vitro; concentration: 250 nM; setting: 60-bp whole probe; with: salmon DNA 0.4 mg/ml; relative to: random background probes; direction: higher = stronger binding; constant ends, left off below: GCCTAGCAC … GTCTTGATTCGCTTGACGCTGCTG
Target: Interferon regulatory factor 5, full length, phosphomimetic (IRF5, Homo sapiens, UniProt Q13568-2, residues 1-514, K96S/S451D/S453D/S456D/S462D)
Strand	log fluorescence [z-score]
TCAGGTTTCCAAATTGTACTGTGCTAG	0.529
GACGATTTCGGGTATAGAGACGTGCTA	4.22
ACGAGTTTCTATTTTCTGAAGTGCTAG	4.62
TTAGGTTTCGGGGTTCGGTTAGTGCTA	6.65
GACGAACTGGGGACTAGAGACGTGCTA	-0.376
GACGATATCCGTTTCGAGACGTGCTAG	2.6
TCATGTTTACAGATGTTACTGTGCTAG	0.359
CCATCTCAGCCTCCCCAAGGGTGCTAG	-0.342
TTATCAATCATTTTAGTTTTGTGCTAG	1.85
CCCATTCCAGGGTTTTATGGAGTGCTA	-0.453
TCAAATCCCCTTCTACTACTGTGCTAG	0.271
CTTTCTTTACTTCACTCTCTGTGCTAG	1.86
TCATTTGTTTCACTTCCTACTGTGCTA	4.55
GACGGTTTCGGTATTGGGACGTGCTAG	9.14
TTAGGTATCGGTATTGGTTAGTGCTAG	7.16
TTAGATTTTAGTCTCGATTAGTGCTAG	1.68
TTAGATTACAGTCTCGATTAGTGCTAG	0.94
TTAGTTTTCAGTTCCGATTAGTGCTAG	3.88
TAGTCTCTTCTGCAGCCTTTGTGCTAG	0.0587

Series 6 — target: UBE2U UBC core domain (UniProt Q5VVX9); method: yeast two-hybrid; matrix: yeast; setting: mostly zero background; relative to: not given; direction: higher = stronger interaction
B1: RNF170 RING domain (UniProt Q96K19); chain TRQQFYTDMYCPICLHQASFPVETNCGHLFCGACIIAYWRYGSWLGAISCPICRQTVTLLLTVF
B2: IRF2BPL RING domain (UniProt Q9H1B7); chain SPMANSGPLCCTICHERLEDTHFVQCPSVPSHKFCFPCSRESIKAQGATGEVYCPSGEKCPLVGSNVP
B3: TRIM69 RING domain (UniProt Q86WT6); chain VIQDITMELHCPLCNDWFRDPLMLSCGHNFCEACIQDFWRLQAKETFCPECKMLCQYNNCTF
B4: ZNF598 RING domain (UniProt Q86UK7); chain AAAPERGGGSCVLCCGDLEATALGRCDHPVCYRCSTKMRVLCEQRYCAVCREELRQVVFGK
Target sequence (chain): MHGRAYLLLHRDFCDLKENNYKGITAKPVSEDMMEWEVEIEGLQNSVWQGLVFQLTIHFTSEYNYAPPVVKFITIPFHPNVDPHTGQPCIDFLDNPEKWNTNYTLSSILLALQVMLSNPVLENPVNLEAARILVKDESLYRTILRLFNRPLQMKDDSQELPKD
Sequence	lacZ reporter activity
RLTMMWEEVTCPICLDPFVEPVSIECGHSFCQECISQVGKGGGSVCPVCRQRFLLKNLRP (TRIM21 RING domain (UniProt P19474))	0
B1 (RNF170 RING domain)	7720
QLRRLQEERTCKVCMDKEVSVVFIPCGHLVVCQECAPSLRKCPICRGIIKGTVRTF (BIRC2 RING domain (UniProt Q13490))	0
B2 (IRF2BPL RING domain)	15300
QHHELTSLFECPVCFDYVLPPILQCQAGHLVCNQCRQKLSCCPTCRGALTPSIRNL (SIAH2 RING domain (UniProt O43255))	9030
VTLSLTLPITCHICLGKVRQPVICINNHVFCSICIDLWLKNNSQCPACRVPITPENPCK (OBI1 RING domain (UniProt Q5W0B1))	4720
YWAMDSTFELCKICAESNKDVKIEPCGHLLCSCCLAAWQHSDSQTCPFCRCEIKGWEAVS (CBLC RING domain (UniProt Q9ULV8))	0
QLRRLQEERTCKVCMDKEVSIVFIPCGHLVVCKDCAPSLRKCPICRSTIKGTVRTF (BIRC3 RING domain (UniProt Q13489))	11800
B3 (TRIM69 RING domain)	0
B4 (ZNF598 RING domain)	5560
FPEHFVKSISCQICEHILADPVETNCKHVFCRVCILRCLKVMGSYCPSCRYPCFPTDLES (RAG1 RING domain (UniProt P15918))	0

Repeated from above (series 6):
Sequence	lacZ reporter activity
QLRRLQEERTCKVCMDKEVSVVFIPCGHLVVCQECAPSLRKCPICRGIIKGTVRTF (BIRC2 RING domain (UniProt Q13490))	0
B2 (IRF2BPL RING domain)	15300
QHHELTSLFECPVCFDYVLPPILQCQAGHLVCNQCRQKLSCCPTCRGALTPSIRNL (SIAH2 RING domain (UniProt O43255))	9030
VTLSLTLPITCHICLGKVRQPVICINNHVFCSICIDLWLKNNSQCPACRVPITPENPCK (OBI1 RING domain (UniProt Q5W0B1))	4720
YWAMDSTFELCKICAESNKDVKIEPCGHLLCSCCLAAWQHSDSQTCPFCRCEIKGWEAVS (CBLC RING domain (UniProt Q9ULV8))	0
QLRRLQEERTCKVCMDKEVSIVFIPCGHLVVCKDCAPSLRKCPICRSTIKGTVRTF (BIRC3 RING domain (UniProt Q13489))	11800
B3 (TRIM69 RING domain)	0
B4 (ZNF598 RING domain)	5560
